Measured values pooled from the literature.
A part holds a random share of what one study measured.

Block 1 — method: protein-binding microarray; molecule type: double-stranded DNA, one strand shown; sample: in vitro; tested at: 940 nM top; setting: 60-bp whole probe; added: salmon DNA 0.4 mg/ml; reference: random background probes; direction: higher = stronger binding; all sequences stand within: GCCTAGCAC … GTCTTGATTCGCTTGACGCTGCTG
Target: Interferon regulatory factor 5, full length, phosphomimetic (IRF5, Homo sapiens, UniProt Q13568-2, residues 1-514, S451D/S453D/S456D/S462D)
Sequence	fitted relative affinity
TCATTTTAAAGTTTCAGACTGTGCTAG	0.574 z-score
GACGCTCTCCTTTTCCTGACGTGCTAG	1.01 z-score
TTAGGTATCCTACTGCTTAAGTGCTAG	-0.168 z-score
TCAGTTGTACTTTCTATCACTGTGCTA	1.38 z-score
TCAGTTATAATATTATTACTGTGCTAG	0.165 z-score
GACGGATTGGGGACTGGGGACGTGCTA	0.147 z-score
GACGATCTCAGTTTCGGGACGTGCTAG	3.93 z-score
TCATATATATGTGTATAACTGTGCTAG	0.0247 z-score
TACGGACTGGGGTTTCGGGACGTGCTA	1.77 z-score
TCATACTTCTCTTTTTGACTGTGCTAG	1.26 z-score
TTAAGTTTCGGGACTGGGTTAGTGCTA	7.63 z-score
TTATGACTGGGGACTGGGTTAGTGCTA	0.0753 z-score
GGCGATTTCAGTATCGAGACGTGCTAG	3.24 z-score
TCAGTTTTTCATTTTTTACTGTGCTAG	1.31 z-score
ACTCGTGTTTTTCTCCTATTGTGCTAG	1.37 z-score
TTAAGTTTCGGACTGGGTTAGTGCTAG	7.5 z-score
CCTGGCTCCATGGAATTTTTGTGCTAG	-0.543 z-score
TTACATTCCCCATTGTGTTGGTGCTAG	0.591 z-score
GACGATATCAGACAGGAGACGTGCTAG	-0.392 z-score

Block 2 — method: protein-binding microarray; molecule type: double-stranded DNA, one strand shown; sample: in vitro; tested at: not given; direction: higher = stronger binding
Target: Max dimerization protein 1, bHLH-zipper, MAX partner unstated (MXD1, Homo sapiens, UniProt Q05195, residues 56-136)
Setting: k-mer, scored over probes, only values ≥0.25
Construct (chain): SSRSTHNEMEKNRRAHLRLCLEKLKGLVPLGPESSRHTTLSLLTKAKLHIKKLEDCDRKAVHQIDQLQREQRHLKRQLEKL
Sequence	E-score
CCCTCCCA	0.343
AAGCACAT	0.306
CGGCCACG	0.311
CGCCCACC	0.257
ACGTGGGG	0.366
CGTGTCAA	0.301
CCATGCAG	0.317
GTGGGGGA	0.308
AAAACCAC	0.282
ATCACACG	0.326
GAGCATGC	0.392
CAATCACG	0.271
CATGTGGC	0.456
CGTGCTTA	0.329
CCCCTCCC	0.392
AGCCACAT	0.25
GTCACCAC	0.252
AGAGCACG	0.352
CGCGCGCG	0.253
CATGTGAC	0.447
CGGGCACA	0.293
ACCCGCCC	0.359
CATGCGTA	0.408
CTCACGCA	0.263

Block 3 — method: protein binding microarray; molecule type: double-stranded DNA, one strand shown; sample: in vitro; tested at: not given; reference: not given; direction: higher = stronger binding
Target: Histone acetyltransferase KAT6A, winged helix 1, GST fusion (KAT6A, Homo sapiens, UniProt Q92794, residues 1-85)
Setting: 8-mer, flanks averaged, mean of 2 arrays, mostly near background
Target sequence (chain): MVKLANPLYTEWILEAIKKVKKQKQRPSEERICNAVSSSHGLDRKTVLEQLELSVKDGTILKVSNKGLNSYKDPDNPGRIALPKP
Sequence	E-score
CTCCCGTA	0.267
AACAGACG	0.0378
AGTCAATA	-0.097
CCGAACGG	0.299
GGTCTTAC	0.0972
CAATTTGA	-0.217
GTCCTGAA	-0.27
GTGAAGTA	-0.0906
GTAGGGGA	-0.161
GGGCTAGA	-0.024
CGAATACA	-0.0917
CTCTCAAG	-0.278
CTACACGA	-0.117
CCACGGGA	0.261
AGATTCCC	0.108
CCAGAGAC	-0.112
ATGGTACC	0.0477
ACGGAAAC	0.348
CACCTCTC	-0.0166
CCTAGGTC	-0.0486
GATATAGA	-0.0777
GCGGCGCA	0.434
AACTTTCG	-0.174
ATACTCTA	-0.000585
CTCATTCA	-0.0339

Block 4 — method: RNA Bind-n-Seq; molecule type: RNA; sample: in vitro; tested at: 365 nM; reference: no-protein control; direction: higher = stronger binding
Target: RNA binding protein fox-1 homolog 2, RRM domain, GST-SBP tag (RBFOX2, Homo sapiens, UniProt O43251-10, residues 100-194)
Setting: natural RNA segment, single round, ends assumed
All sequences stand within: GGGAGUUCUACAGUCCGACGAUC … UGGAAUUCUCGGGUGCCAA
Construct (chain): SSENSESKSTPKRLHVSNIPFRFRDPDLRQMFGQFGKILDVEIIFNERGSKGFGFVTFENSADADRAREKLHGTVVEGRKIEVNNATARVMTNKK
Sequence	RBNS enrichment (R)
GUUUUAGGUAACCCCUGUGAGAGGGUCGUUCCAUACUCCACCCCCCAGGGGUCACAACCUACAGGUUGAGAACUACUAUUCUAAAGGCUCAGCACUCUGCAGAGCACAGG	0.262
GACUGUGGAACCGUUUUUAUGGAUUUUGCCCCUGCUUGCUUUCAUCCUGUAACCUAGCCUGUAUUAUACAAGAAAACUUGAGCAGGACAUUUCAAGAGAAUAUGUUGGCC	3.58
GGUGCUUGGGCCAGGUCUUCUCAAUGGAAGGGGAAUCCCUUAUAGGGGAGAGGGAACAGAGCCCAGUGAAAUGGCAGUCAGAAUGUUAACCCUGGAUCCAUCUCUAAGUA	0.267
UAACAAACACAACUAAGGCCUCUGGUACCCUCUGCCCUGCUGGCCUGGUGAUGUCCCAGUGUCUCAGAACUGAUCACUUGCUCCUCCUAUUGUGUGAACCACUCUUAGCA	2.48
CCACUGUGGUGGCAGUGGAGGUGGGGUGUUUGGGAGGCUGCGUGCCAGUCAAGAAGAAAAAGGUUUGCAUUCUCACAUUGCCAGGAUGAUAAGUUCCUUUCCUUUUCUUU	0.732
GCUCUCCCUAGUCCUAGUGUGUGCACAUGCAGUUCUUUCCUGCCUUCGACCUUUAACAACAUUUUCUGUCUAUGCAAAGAAAGCUGCAGGCCUCAUUCAGUUCUGCAGAC	0.38
ACCUACCAGAGUUAGUGCUUCUUUAAAAACACUCCUUGGAAAGAUGGGGACUGUCCCUUAGGAAAGCCAUAAAAGUGAUUCCCAAUACUUUGCAAUUGCUUUUGAUUUUU	0.308
CCAAAUUUGUGGAACUAUUAAAUGUAUAAUUUGUAGACAUAAAGACUUGAUUGCUUUCCAGUUUAAUGAAAGCUUAGAUGUCCCUGCGAACCCACAAUCUCCACCAGCAG	0.287

Some of these lines once more (block 3):
Sequence	E-score
GATATAGA	-0.0777
CCGAACGG	0.299
GGGCTAGA	-0.024
CCTAGGTC	-0.0486
ATGGTACC	0.0477
AGATTCCC	0.108
CTCATTCA	-0.0339
GTCCTGAA	-0.27
ATACTCTA	-0.000585
